# Literature values as cited in several papers.
# Protocols differ between the studies behind these lines.
SMILES,assay,test system,setting,how to read,half-life
CC[C@H](C)[C@H](NC(=O)CNC(=O)CNC(=O)c1ccc2c(c1)C(=O)OC21c2ccc(O)cc2Oc2cc(O)ccc21)C(=O)N[C@@H](Cc1ccc(O)cc1)C(=O)N[C@@H](C)C(=O)N[C@@H](C)C(=O)N1CCC[C@H]1C(=O)N(C)[C@@H](Cc1ccccc1)C(=O)N[C@@H](CCCCN)C(=O)N[C@@H](CCCCN)C(=O)N[C@@H](CCCCN)C(=O)N[C@@H](C)C(N)=O,,,with: cellular proteases,relative to: parent peptide,15 fold
O=C([O-])CN1CCOCCN(CC(=O)[O-])Cc2cccc(n2)C1.[Mn+2],,aqueous solution,"pH 7.4, 25 °C, with: Cu(II)",,1620 h
C=C[C@@H]1C[C@]1(NC(=O)[C@@H]1C[C@@H](Oc2cc(-c3ccccc3)nc3cc(OC)ccc23)CN1C(=O)[C@@H](NC(=O)OC(C)(C)C)C(C)(C)C)C(=O)NS(=O)(=O)C1CC1,,rat liver microsomes,,,2.7 h
Cc1ccccc1-c1cc(N2CC[N+](C)([O-])CC2)ncc1N(C)C(=O)C(C)(C)c1cc(C(F)(F)F)cc(C(F)(F)F)c1,,"healthy volunteers, plasma","oral, dose not given, netupitant-palonosetron, fasted",,48.9 h
Cc1cn(C2C=CC(COP(=O)(O)OP(=O)(O)OP(=O)(O)O)O2)c(=O)[nH]c1=O (stereo not shown),,CEM/0 cell extract,,,0.633 h
Cc1ccccc1-c1cc(N2CCNCC2)ncc1N(C)C(=O)C(C)(C)c1cc(C(F)(F)F)cc(C(F)(F)F)c1,,"healthy volunteers, plasma","oral, dose not given, netupitant-palonosetron, fasted",,82.2 h
CCCCCCCCc1ccc(CCC(N)(CO)COP(=O)(O)O)cc1 (stereo not shown),,,,,25 h
C[C@@H](O)[C@H](NC(=O)OP(=O)(O)OC[C@H]1O[C@@H](n2cnc3c(N)ncnc32)[C@H](O)[C@@H]1O)C(=O)O,,,"pH 7.5, with: 2 mM Mg2+",,0.0583 h
CC(C)(C)C1=CC(=NNC(=O)c2ccncc2)C=C(C(C)(C)C)C1=O,,mouse liver microsomes,,,< 0.0333 h
O=C([O-])CN(CC(=O)[O-])C1CCCCC1N(CC(=O)[O-])CC(=O)[O-].[Mn+2] (stereo not shown),,aqueous solution,"pH 7.4, 25 °C, with: Cu(II)",,12.3 h
CN1CCN(c2cc(-c3ccccc3CO)c(N(C)C(=O)C(C)(C)c3cc(C(F)(F)F)cc(C(F)(F)F)c3)cn2)CC1,,"patients, plasma","oral, dose not given, netupitant-palonosetron combination, with: docetaxel 75 to 100 mg/m^2 IV",,80.3 h
Cc1cnc(Nc2ccc(C#N)cc2)nc1Nc1c(F)cc(-c2ccc(C#N)cc2)cc1F,,human liver microsomes,,,2.3 h
CN1C(=O)C[C@@H](C(=O)N[C@@H](Cc2c[nH]cn2)C(=O)N2CCC[C@H]2C(N)=O)NC1=O,degradation,brain homogenate,,,1.07 h

# Some of these lines once more:
SMILES,assay,test system,setting,how to read,half-life
C=C[C@@H]1C[C@]1(NC(=O)[C@@H]1C[C@@H](Oc2cc(-c3ccccc3)nc3cc(OC)ccc23)CN1C(=O)[C@@H](NC(=O)OC(C)(C)C)C(C)(C)C)C(=O)NS(=O)(=O)C1CC1,,rat liver microsomes,,,2.7 h
